Results collected from several papers.
Each line is one published result; not all experiments were run side by side. “And” joins repeats or separate records; there may be more than shown. ± gives the spread as reported. Converted amounts (≈) assume the structure as drawn.
Sequence of UniProt Q9UBE8 (whole entry, looked up): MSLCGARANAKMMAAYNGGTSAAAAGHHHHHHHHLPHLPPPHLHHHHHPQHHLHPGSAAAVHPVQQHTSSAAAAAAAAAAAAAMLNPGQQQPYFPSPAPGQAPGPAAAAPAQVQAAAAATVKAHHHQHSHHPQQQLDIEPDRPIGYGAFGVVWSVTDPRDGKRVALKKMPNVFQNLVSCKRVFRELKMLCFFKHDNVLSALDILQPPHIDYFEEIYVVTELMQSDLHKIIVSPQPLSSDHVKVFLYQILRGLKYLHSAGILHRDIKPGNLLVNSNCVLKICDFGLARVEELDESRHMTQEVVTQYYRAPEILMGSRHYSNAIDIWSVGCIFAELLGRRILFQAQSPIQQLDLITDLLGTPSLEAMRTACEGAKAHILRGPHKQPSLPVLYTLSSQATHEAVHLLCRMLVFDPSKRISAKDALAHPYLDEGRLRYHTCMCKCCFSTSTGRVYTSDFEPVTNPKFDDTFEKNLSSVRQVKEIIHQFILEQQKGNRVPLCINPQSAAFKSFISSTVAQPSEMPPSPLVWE

With `CC[C@H](C)[C@H](NC(=O)[C@H](CCCCN)NC(=O)[C@H](CCCCN)NC(=O)[C@H](Cc1ccccc1)NC(=O)[C@H](Cc1ccccc1)NC(=O)[C@H](CCCCN)NC(=O)[C@H](CCCCN)NC(=O)[C@H](Cc1ccccc1)NC(=O)[C@H](CCCNC(=N)N)NC(=O)[C@@H](N)CCCCN)C(=O)N[C@@H](CCCCN)C(=O)N[C@@H](CCCCN)C(=O)N[C@@H](CO)C(=O)N[C@H](C(=O)N[C@@H](CCCCN)C(=O)N[C@@H](CCCCN)C(=O)N[C@@H](CCCNC(=N)N)C(=O)N[C@H](C(=O)N[C@@H](CCCCN)C(=O)N[C@@H](CCCCN)C(=O)N[C@@H](CC(C)C)C(=O)N[C@@H](Cc1ccccc1)C(=O)N[C@@H](CCCCN)C(=O)N[C@@H](CCCCN)C(=O)N1CCC[C@H]1C(=O)N[C@@H](CCCNC(=N)N)C(=O)N[C@H](C(=O)N[C@H](C(=O)N1CCC[C@H]1C(=O)N[C@H](C(=O)N[C@@H](CO)C(=O)N[C@H](C(=O)N1CCC[C@H]1C(=O)N[C@@H](Cc1ccccc1)C(=O)O)[C@@H](C)CC)[C@@H](C)CC)[C@@H](C)CC)C(C)C)C(C)C)C(C)C` the MIC was 4 µg/mL (≈ 0.948 µM) (Escherichia coli; MIC after serum incubation; E24; 0 h, 37 °C, with: 25% mouse serum).
The selectivity index of `CCCCCC(=O)NC(CC(=O)N(CC)CC)C(=O)NC(Cc1ccc(F)cc1)C(=O)NC(Cc1ccc(F)cc1F)C(=O)C1(C)CO1` (stereo not drawn) is reported as 36 (Trypanosoma brucei brucei; HepG2 cells, Lister 427; relative to: HepG2 CC50 over T. brucei EC50).
For `CC(C)(C)C(=O)OCOP(=O)(OCOC(=O)C(C)(C)C)C1CCCN(O)C1=O` (stereo not drawn), the log TGI was -5.09 log M (TK-10).
For `COc1ccccc1-c1n[nH]c2nc(NC3CCN(C(=O)Cc4ccc(F)cc4F)CC3)ncc12`, “relative captured amount” read 0.78 (CRK3 LINJ.36.0600; bead competition pull-down; Leishmania donovani extract; 10 µM; relative to: vehicle).
`C#CCN1C(=O)C(CC#C)(C(=O)OCC)Oc2ccccc21` (stereo not drawn) — result for bud growth: “no effect” (Triticum aestivum; no effect, hydroponic germination; seedlings; 50 µg/mL, 4 days).
`CCN(CC)C(=O)CC(NC(=O)CCc1ccccc1)C(=O)NC(Cc1ccc(F)cc1)C(=O)NC(Cc1ccc(F)cc1F)C(=O)C1(C)CO1` (stereo not drawn) gave a selectivity index of > 80 and 86 (Trypanosoma brucei brucei; HepG2 cells, Lister 427; relative to: HepG2 CC50 over T. brucei EC50).
The sequestered amount of `C[C@H]1O[C@@H](O[C@H]2CC[C@@]3(C)[C@H](C2)C[C@@H]2O[C@]24[C@@H]3C[C@@H](O)[C@]2(C)[C@@H](C3=CC(=O)OC3)CC[C@@]24O)[C@H](O)[C@H](O)[C@@H]1O[C@@H]1O[C@H](CO)[C@@H](O)[C@H](O)[C@H]1O` is reported as 0.07 mg/g dry mass (Oncopeltus fasciatus; HPLC-UV; adult whole body; diet, 0.58 mg/g dry diet).
For `Cc1nc2cccc(OCC(C)(C)C(=O)NC(C)C)c2c(N)c1C(=O)[O-].[Na+]`, “revertant colonies per plate” read 121 ± 4 (Salmonella typhimurium; TA100; 2.0 mg per plate, without S9, preincubation).
`O=C1NC2(CC2)COc2ncc(F)cc2[C@H]2COCCN2c2ccn3ncc1c3n2` has a total cholesterol of 2.12 ± 0.55 mmol/L (Sprague-Dawley rat, female, serum; oral, 10 mg/kg/day, 4 weeks daily, end of treatment).
For `CC1(F)CN(C(=O)Cn2c(=O)c(C(=O)NCc3ccc(Cl)cc3)cc3nc(N4CCN(CCN)C4=O)cnc32)C1`, the selectivity index was > 52.3 (herpes simplex virus 2; cytopathic effect; G; relative to: CC50 over EC50).
`CN(C)[C@H]1C[C@@]23CC[C@@]4(O2)C(=CC[C@]2(C)[C@@H](c5ccc6ccncc6c5)CC[C@H]24)C=C3[C@@H](O)[C@@H]1O` gave an inhibition of 15.1% (Serine/threonine-protein kinase NLK (NLK, Homo sapiens, UniProt Q9UBE8); ATP probe labelling, inhibitor, KiNativ profiling; 1 µM).
The therapeutic index of `O=C(Oc1cc(OC(=O)c2cc(O)c(O)c(O)c2)c2ccccc2c1)c1cc(O)c(O)c(O)c1` is reported as 31.6 (herpes simplex virus 2; RT-qPCR; HeLa, acyclovir-resistant; relative to: CC50 over IC50).

Excerpt of the above:
For `COc1ccccc1-c1n[nH]c2nc(NC3CCN(C(=O)Cc4ccc(F)cc4F)CC3)ncc12`, “relative captured amount” read 0.78 (CRK3 LINJ.36.0600; bead competition pull-down; Leishmania donovani extract; 10 µM; relative to: vehicle).
